Results pooled from the literature.
Each numbered part is a random draw from the data of one study; scales do not carry over between parts.

Block 1
Cell line: HaCaT
Tested at: 100 µM
Time: 60 h
With `O=c1c(-c2ccc(O[C@@H]3O[C@H](CO)[C@@H](O)[C@H](O)[C@H]3O)cc2)coc2cc(O)cc(O)c12` the viability was 153%.
`Cc1cc(NS(=O)(=O)c2ccc(N)cc2)nc(C)n1` has a viability of 140%.
With `CN(C)CCc1c[nH]c2ccc(CS(=O)(=O)N3CCCC3)cc12` the viability was 119%.
`C[C@H](CS)C(=O)N1CCC[C@H]1C(=O)O` gave a viability of 141%.
For `COC(=O)C1=CO[C@@H](O)[C@@H]2C(CO)=CC[C@H]12`, the viability was 107%.
`C[C@H]1CN(C[C@H](Cc2ccccc2)C(=O)NCC(=O)O)CC[C@@]1(C)c1cccc(O)c1` has a viability of 141%.

Block 2
Target: Histamine H1 receptor (HRH1, Homo sapiens, UniProt P35367)
Chain of UniProt P35367 (whole entry, looked up): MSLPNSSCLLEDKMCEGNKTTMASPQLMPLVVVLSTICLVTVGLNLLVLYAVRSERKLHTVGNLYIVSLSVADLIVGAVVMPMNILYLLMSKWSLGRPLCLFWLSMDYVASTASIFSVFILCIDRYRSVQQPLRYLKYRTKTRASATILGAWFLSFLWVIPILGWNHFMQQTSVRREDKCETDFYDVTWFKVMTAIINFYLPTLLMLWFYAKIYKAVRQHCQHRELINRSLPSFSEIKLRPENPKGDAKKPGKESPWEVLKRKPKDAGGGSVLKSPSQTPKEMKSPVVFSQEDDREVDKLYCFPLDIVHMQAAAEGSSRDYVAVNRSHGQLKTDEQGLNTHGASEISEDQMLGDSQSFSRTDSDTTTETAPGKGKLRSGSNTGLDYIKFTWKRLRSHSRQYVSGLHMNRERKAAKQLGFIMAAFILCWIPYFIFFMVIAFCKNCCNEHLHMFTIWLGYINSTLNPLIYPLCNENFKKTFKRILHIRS
Observed: binding
Technique: radioligand binding
Tested at: 10 µM
With `Cc1nccc(COC(=O)N2C[C@@H]3[C@@H](CNC(=O)c4ccc5[nH]nnc5c4)[C@@H]3C2)n1` the inhibition was 18.1%.
`CC(=O)c1c(NS(C)(=O)=O)c2cc(-c3ccc(Cl)cc3)c(-c3ccc(Cl)cc3Cl)nc2n(C)c1=O` has an inhibition of 18.8%.
With `CN1C(=O)[C@@H](N2CCc3cn(Cc4ccccc4)nc3C2=O)COc2ccccc21` the inhibition was 20.5%.
With `CNC(=O)Nc1ccc2c(c1)[C@]1(CC2)OC(=O)N(CC(=O)N(Cc2ccc(F)cc2)[C@@H](C)C(F)(F)F)C1=O` the inhibition was -7.68%.
With `Nc1c(C(=O)NCc2ccc(C(=O)NCCCC3CCCCC3)cc2)cnn1-c1ccccc1` the inhibition was 14.7%.
The inhibition of `O=C1CCc2cc(Nc3cc(OC4CCOCC4)c([N+](=O)[O-])cc3Cl)ccc2N1` is reported as 17%.
For `CCOC(=O)c1cc2cc(-c3cc(C(=O)NCc4ccc(C(=O)O)cc4)nn3C)ccc2[nH]1`, the inhibition was 9.64%.
With `O=C(O)c1cc(-c2ccc(C3CCNCC3)cc2)c2ccc(-c3ccc(C(F)(F)F)cc3)cc2c1` the inhibition was 21.6%.
For `O=C(NC[C@@H]1[C@H]2CN(C(=O)OCc3cc(C(F)(F)F)cc(C(F)(F)F)c3)C[C@@H]12)c1ccc2[nH]nnc2c1`, the inhibition was 12.8%.
`COc1cccc(CNC(=O)c2nc3scc(COCc4ccc(C(=O)O)cc4)c3c(=O)[nH]2)c1` has an inhibition of 50.2%.
`O=C(Nc1ccc(-n2nc(-c3cccnc3)cc2C(F)(F)F)cn1)c1ccc(-c2ccccc2)c(F)c1` has an inhibition of 3.07%.
`COCc1nc2cnc3cc(-c4c(C)noc4C)c(OC[C@H]4CCNC4)cc3c2n1[C@H](C)c1ccccc1` has an inhibition of 0.33%.
With `C[C@@]1(Cc2ccc(C#N)cc2)C(=O)N(c2cc(Cl)cc(Cl)c2)c2ncc(C(=O)NC3(c4nc(C5CCC5)no4)CC3)n21` the inhibition was 10.3%.
`CN(C)C(=O)Cn1cc(-c2nc([C@@](C)(c3ccc(-c4cnc(N)nc4)cc3)C3CC3)no2)cn1` has an inhibition of 7.66%.
With `O=C(Nc1cccnn1)N1CC(CC=Cc2cncc(Oc3ccc(C(F)(F)F)cn3)n2)C1` the inhibition was 17.3%.
The inhibition of `CNC(=O)c1ccc(Nc2ncc(C(F)(F)F)c(NCc3nccnc3N(C)S(C)(=O)=O)n2)cc1` is reported as -3.38%.
`Cc1c[nH]c2nccc(Oc3c(F)cc(Nc4cc(Cl)nc(N)n4)cc3F)c12` has an inhibition of -0.06%.
`O[C@]1(C(F)(F)F)CCCC[C@H]1Nc1ccc(F)cc1` gave an inhibition of 25.7%.
The inhibition of `C[C@H](NC(=O)c1cnc2n1[C@](C)(Cc1ccc(C#N)cc1)C(=O)N2c1cc(Cl)c(F)c(Cl)c1)C(=O)NC1(c2ccccn2)CC1` is reported as 3.2%.
`O=C(Nc1cccnn1)N1CCC(=Cc2cccc(Oc3ccc(C(F)(F)F)cn3)c2)CC1` gave an inhibition of 27.2%.

Block 3
SMILES: C=CCc1ccc(O)c(-c2ccc(O)c(CC=C)c2)c1
Observed: chloride current
ANO1 del476-501/R541A: Anoctamin-1 (ANO1, Homo sapiens, UniProt Q5XXA6, del476-501/R541A)
Chain of UniProt Q5XXA6 (whole entry, unmodified, looked up): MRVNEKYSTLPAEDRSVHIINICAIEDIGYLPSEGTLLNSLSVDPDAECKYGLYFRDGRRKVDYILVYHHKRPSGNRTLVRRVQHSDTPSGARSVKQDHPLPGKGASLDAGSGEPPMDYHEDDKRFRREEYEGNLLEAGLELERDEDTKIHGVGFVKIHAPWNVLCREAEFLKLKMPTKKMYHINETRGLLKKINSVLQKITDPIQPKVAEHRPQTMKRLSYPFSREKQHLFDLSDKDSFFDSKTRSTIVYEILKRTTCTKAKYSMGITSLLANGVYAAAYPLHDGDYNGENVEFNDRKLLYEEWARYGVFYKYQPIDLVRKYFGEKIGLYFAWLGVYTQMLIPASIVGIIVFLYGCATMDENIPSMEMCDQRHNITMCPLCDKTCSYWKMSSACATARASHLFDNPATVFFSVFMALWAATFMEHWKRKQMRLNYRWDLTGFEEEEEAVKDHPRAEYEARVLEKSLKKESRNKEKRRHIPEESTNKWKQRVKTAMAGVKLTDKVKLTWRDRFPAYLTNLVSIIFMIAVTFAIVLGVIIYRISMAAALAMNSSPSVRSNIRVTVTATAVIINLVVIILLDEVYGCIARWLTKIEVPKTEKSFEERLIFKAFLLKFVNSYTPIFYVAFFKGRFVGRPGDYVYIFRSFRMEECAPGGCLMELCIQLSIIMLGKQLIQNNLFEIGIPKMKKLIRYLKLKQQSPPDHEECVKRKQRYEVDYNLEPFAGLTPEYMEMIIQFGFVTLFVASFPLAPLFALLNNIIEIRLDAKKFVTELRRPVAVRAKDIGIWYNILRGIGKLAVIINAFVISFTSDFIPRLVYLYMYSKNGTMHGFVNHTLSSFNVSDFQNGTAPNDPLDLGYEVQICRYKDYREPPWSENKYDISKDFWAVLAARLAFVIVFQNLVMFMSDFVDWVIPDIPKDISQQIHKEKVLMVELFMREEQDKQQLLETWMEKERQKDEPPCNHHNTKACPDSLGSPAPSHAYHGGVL
ANO1 del476-501/F628A: Anoctamin-1 (ANO1, Homo sapiens, UniProt Q5XXA6, del476-501/F628A)
The normalized current was 0.354 (Anoctamin-1 (ANO1, Homo sapiens, UniProt Q5XXA6, del476-501/K629A); inside-out patch clamp; 10 µM, membrane voltage 60 mV).
For Anoctamin-1 (ANO1, Homo sapiens, UniProt Q5XXA6, del476-501/E659A); inside-out patch clamp; 10 µM, membrane voltage -40 mV: normalized current read -0.406.
For ANO1 del476-501/R541A; inside-out patch clamp; 10 µM, membrane voltage 120 mV: normalized current read 1.
The normalized current was -0.523 (ANO1 del476-501/F628A; whole-cell voltage clamp; 3 µM, concentration-response at -60 mV, added: 4 µM Ca2+).
It gave 0.145 for normalized current (ANO1 del476-501/F628A; whole-cell voltage clamp; 100 µM, concentration-response at 100 mV, added: 4 µM Ca2+).
The normalized current was 0.297 (ANO1 del476-501/F628A; whole-cell voltage clamp; 3 µM, I-V at 40 mV, added: 4 µM Ca2+).
It gave 0.56 for normalized current (ANO1 del476-501/R541A; inside-out patch clamp; 10 µM, membrane voltage 80 mV).

Block 4
Cell line: mouse MPNST tumor cells
Technique: high-content nuclear imaging
Measured: cell number
Tested at: 10 µM
Time: 12 h
Notes: mean of 2 replicates
Baseline: plate mean
Reading: higher = more cells
The nuclei count of `O=C(NC1CCOCC1)c1ccc(-c2cc(-c3c[nH]nc3-c3ccccn3)ccn2)cc1` is reported as -2.12 z-score.
`CSc1ccc(C(=O)NC2CCCCC2NC(=O)CNC(=O)c2cc(C(F)(F)F)ccc2NC(=O)NC(C)C)cc1` (stereo not shown) gave a nuclei count of -0.141 z-score.
With `C[C@@H](Oc1nnc(-c2ccncc2)n1C)c1cc(-c2cccc(Cl)c2)on1` the nuclei count was 1.79 z-score.
With `CC[C@H](c1ccc(O)cc1)[C@@H](CC)c1ccc(O)cc1` the nuclei count was 0.117 z-score.
The nuclei count of `Cc1nc(C#Cc2cccnc2)cs1` is reported as 0.739 z-score.
For `CN1C(=O)N(c2cc(Cl)cc(Cl)c2)C(=O)[C@@]1(C)Cc1ccc(Br)cc1`, the nuclei count was -0.5 z-score.
The nuclei count of `C#C[C@]1(O)CC[C@H]2[C@@H]3CCC4=C(CCC(=O)C4)[C@H]3CC[C@@]21C` is reported as 2.73 z-score.
`COC(=O)C1=C(C)NC(C)=C(C(=O)OC2CCCN(Cc3ccccc3)C2)C1c1cccc([N+](=O)[O-])c1` (stereo not shown) has a nuclei count of 0.751 z-score.
`NC(=O)c1cc[n+](CC2=C(C(=O)[O-])N3C(=O)[C@@H](NC(=O)[C@@H](c4ccccc4)S(=O)(=O)O)[C@H]3SC2)cc1` has a nuclei count of 0.209 z-score.
The nuclei count of `CNc1nnc(SCc2ccccc2)s1` is reported as 1.02 z-score.

Excerpt of the above (block 2):
With `Nc1c(C(=O)NCc2ccc(C(=O)NCCCC3CCCCC3)cc2)cnn1-c1ccccc1` the inhibition was 14.7%.
With `C[C@@]1(Cc2ccc(C#N)cc2)C(=O)N(c2cc(Cl)cc(Cl)c2)c2ncc(C(=O)NC3(c4nc(C5CCC5)no4)CC3)n21` the inhibition was 10.3%.
`COCc1nc2cnc3cc(-c4c(C)noc4C)c(OC[C@H]4CCNC4)cc3c2n1[C@H](C)c1ccccc1` has an inhibition of 0.33%.
With `CN1C(=O)[C@@H](N2CCc3cn(Cc4ccccc4)nc3C2=O)COc2ccccc21` the inhibition was 20.5%.
With `O=C(Nc1cccnn1)N1CC(CC=Cc2cncc(Oc3ccc(C(F)(F)F)cn3)n2)C1` the inhibition was 17.3%.
For `O=C(NC[C@@H]1[C@H]2CN(C(=O)OCc3cc(C(F)(F)F)cc(C(F)(F)F)c3)C[C@@H]12)c1ccc2[nH]nnc2c1`, the inhibition was 12.8%.
